Results gathered from unrelated publications.
Numbered parts are unrelated; each lists some results of a single study. Positions count from the first letter of the parent shown.

Set 1 — method: universal PBM; form: double-stranded DNA, one strand shown; medium: in vitro; tested at: 600 nM; reading: higher = stronger binding
Target: Sal-like protein 4, full length isoform A (SALL4, Homo sapiens, UniProt Q9UJQ4, residues 1-1053)
UniProt Q9UJQ4, sequence (whole entry, looked up): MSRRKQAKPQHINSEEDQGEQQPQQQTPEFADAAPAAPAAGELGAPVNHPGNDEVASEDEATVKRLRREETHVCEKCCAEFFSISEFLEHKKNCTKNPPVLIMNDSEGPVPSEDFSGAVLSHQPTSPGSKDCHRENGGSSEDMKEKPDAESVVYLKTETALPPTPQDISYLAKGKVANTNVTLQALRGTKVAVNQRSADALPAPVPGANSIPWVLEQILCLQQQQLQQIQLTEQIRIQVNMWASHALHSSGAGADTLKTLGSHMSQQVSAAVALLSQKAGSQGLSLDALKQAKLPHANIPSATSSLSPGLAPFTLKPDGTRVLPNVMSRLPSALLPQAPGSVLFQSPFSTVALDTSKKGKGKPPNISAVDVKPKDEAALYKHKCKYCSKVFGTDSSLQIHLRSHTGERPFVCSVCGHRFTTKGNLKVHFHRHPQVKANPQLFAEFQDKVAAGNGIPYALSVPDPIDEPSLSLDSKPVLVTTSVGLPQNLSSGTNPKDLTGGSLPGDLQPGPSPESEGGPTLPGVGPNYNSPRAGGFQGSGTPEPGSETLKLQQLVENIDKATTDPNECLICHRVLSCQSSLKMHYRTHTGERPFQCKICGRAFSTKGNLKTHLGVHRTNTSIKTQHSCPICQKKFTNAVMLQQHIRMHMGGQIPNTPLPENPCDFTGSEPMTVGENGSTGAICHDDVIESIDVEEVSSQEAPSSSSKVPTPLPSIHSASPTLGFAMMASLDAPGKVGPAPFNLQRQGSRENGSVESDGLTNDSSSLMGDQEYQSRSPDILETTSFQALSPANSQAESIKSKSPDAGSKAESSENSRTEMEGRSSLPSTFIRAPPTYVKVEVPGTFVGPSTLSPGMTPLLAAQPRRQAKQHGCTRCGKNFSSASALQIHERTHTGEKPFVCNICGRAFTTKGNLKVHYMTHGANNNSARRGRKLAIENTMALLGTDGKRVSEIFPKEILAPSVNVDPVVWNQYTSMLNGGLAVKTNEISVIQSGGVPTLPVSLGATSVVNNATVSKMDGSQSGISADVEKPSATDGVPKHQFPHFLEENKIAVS
Setting: 8-mer, flanks averaged, mean of replicates
`AAACCGAC` gave an E-score of -0.126.
With `ACCACGGC` the E-score was -0.175.
`AAGCCTTC` gave an E-score of -0.0919.
`CTGTTCCA` gave an E-score of -0.017.
For `CGATTGCC`, the E-score was -0.174.
The E-score of `CATAGGAC` is reported as -0.0275.
With `GTTATCTA` the E-score was 0.24.
`CCTAATGC` has an E-score of -0.0551.
`GTAAGGAA` has an E-score of -0.0404.

Set 2 — method: RNA Bind-n-Seq; form: RNA; medium: in vitro; tested at: 200 nM; setting: whole 134-nt RNA, ends assumed; together with: 150 mM LiCl; reference: input library; reading: higher = stronger binding; library: 7-deaza-guanosine replaces G
Target: Ras GTPase-activating protein-binding protein 1, full length (G3BP1, Homo sapiens, UniProt Q13283)
UniProt Q13283, sequence (whole entry, looked up): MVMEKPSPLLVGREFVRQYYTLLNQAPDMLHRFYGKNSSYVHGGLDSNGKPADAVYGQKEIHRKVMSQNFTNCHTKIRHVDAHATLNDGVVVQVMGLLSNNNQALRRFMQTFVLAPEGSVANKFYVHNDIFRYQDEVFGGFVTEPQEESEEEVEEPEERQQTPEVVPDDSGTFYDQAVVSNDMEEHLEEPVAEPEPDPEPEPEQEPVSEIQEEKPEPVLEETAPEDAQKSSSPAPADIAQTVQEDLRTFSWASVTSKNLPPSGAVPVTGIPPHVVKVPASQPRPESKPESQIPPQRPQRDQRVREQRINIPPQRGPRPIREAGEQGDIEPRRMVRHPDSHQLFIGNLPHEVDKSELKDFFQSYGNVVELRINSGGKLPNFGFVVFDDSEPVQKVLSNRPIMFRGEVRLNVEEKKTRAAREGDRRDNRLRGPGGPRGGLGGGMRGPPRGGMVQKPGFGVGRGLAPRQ
Constant ends, left off below: GGGAGUUCUACAGUCCGACGAUC … UGGAAUUCUCGGGUGUCAAGG
For `AAGUCCUGUGCUACACAUCGUAUGUACCGAAUCGGGUGGGUUUGGGAAAAAAAGGGAAAGUAUUAUGUUACGCCGUUCGGAUCUGCACUU`, the log2 enrichment was -0.468.
`GCAGGAAGUAAAAACAAAUGGAAAUGCUUCGGAUAGUGGCAGGGGUGGGGGUUGCUAAGGAAAGGGUGGGCUGGGAGUGGGUAAAGAGUU` gave a log2 enrichment of -0.0343.
For `UAACUUUAGAGGAGGAUCAGAUGGAUAUGGCAGUGGACGUGGAUUUGGGGAUGGCUAUAAUGGGUAUGGAGGAGGACCUGGAGGUGGCAA`, the log2 enrichment was -0.0827.
`CCUGUGCUACACAUCGUAUGUACCGAAUCGGGGUUUUUUGGUUUUUUGGGUUUUUUGGGGAAAGUAUUAUGUUACGCCGUUCGGAUCUGC` has a log2 enrichment of -0.903.
For `UGGGAGGUGGAUUUUGUUUAUUUUUUUAGCUCAUUUCCAGGGGUGGGAAUUUUUUUUUAAUAUGUGUCAUGAAUAAAGAUGUUUUUGAAA`, the log2 enrichment was -0.609.
The log2 enrichment of `UUUCUCCAAGGACAUCAAGGUGCCCAAGAGCCGCUACCUGGGCUACAUCAAGGACUACGAGGGAGCGACGCUGAUGGAGUGUGAGCUGAA` is reported as -1.5.

Set 3 — method: DHFR PCA, deep sequencing; medium: yeast; together with: (+)-ABA 4.8 µM; reference: wild-type fitted maximum; reading: higher = stronger binding
Target: ABI1, truncated, D143A, DHFR fusion (Arabidopsis thaliana)
Setting: methotrexate growth selection, single substitutions
Starting sequence: PYL1, truncated, DHFR fusion (Arabidopsis thaliana); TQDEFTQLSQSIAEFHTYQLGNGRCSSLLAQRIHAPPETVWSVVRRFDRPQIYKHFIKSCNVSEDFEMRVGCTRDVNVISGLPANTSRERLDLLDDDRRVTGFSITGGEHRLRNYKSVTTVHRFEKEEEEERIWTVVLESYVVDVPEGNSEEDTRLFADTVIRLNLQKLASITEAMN
`L156Q`: “relative binding score” 45.2%.
Under “relative binding score”, `S171G` is recorded as 59.8%.
For `R123A`, “relative binding score” read 80.1%.
For `T160A`, “relative binding score” read 16.1%.
Under “relative binding score”, `T135C` is recorded as 63.6%.
For `E151N`, “relative binding score” read 47.9%.
Under “relative binding score”, `L82R` is recorded as 0.553%.
Under “relative binding score”, `D3T` is recorded as 61.5%.
`T154W` — result for “relative binding score”: 5.38%.

Set 4 — target: CCNE2, cyclin fold, Cln2 fusion (human); method: yeast growth competition, sequencing; medium: yeast; setting: weak parent motif; reference: not given; reading: higher = stronger binding
Starting sequence: MICAL3 docking peptide (human); LQLRRQLSFSEDS; partner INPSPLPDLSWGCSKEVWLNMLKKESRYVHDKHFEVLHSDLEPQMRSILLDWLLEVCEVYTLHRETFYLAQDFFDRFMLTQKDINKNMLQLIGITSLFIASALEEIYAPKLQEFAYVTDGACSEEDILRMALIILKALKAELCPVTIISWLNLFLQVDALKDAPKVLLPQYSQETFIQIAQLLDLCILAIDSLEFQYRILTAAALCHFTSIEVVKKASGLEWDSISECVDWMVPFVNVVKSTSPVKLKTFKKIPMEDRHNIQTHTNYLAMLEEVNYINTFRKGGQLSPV
For `LQLRRQLSFKEDS [S10K]`, “normalised enrichment score” read 0.153.
`LQLRRQMSFSEDS [L7M]` — result for “normalised enrichment score”: 0.136.
`LQLRRQLSCSEDS [F9C]` — result for “normalised enrichment score”: 0.0983.
`LQLRRQLAFSEDS [S8A]`: “normalised enrichment score” 0.204.
For `LHLRRQLSFSEDS [Q2H]`, “normalised enrichment score” read 0.262.
`LQLRWQLSFSEDS [R5W]` — result for “normalised enrichment score”: 0.209.
`LQLRRQQSFSEDS [L7Q]` — result for “normalised enrichment score”: 0.0257.
`LQLRRQLTFSEDS [S8T]`: “normalised enrichment score” 0.139.
Under “normalised enrichment score”, `LQLPRQLSFSEDS [R4P]` is recorded as -0.0148.

For quick reference, copied from above (set 4):
`LQLRWQLSFSEDS [R5W]` — result for “normalised enrichment score”: 0.209.
`LQLRRQQSFSEDS [L7Q]` — result for “normalised enrichment score”: 0.0257.
